Measurements from different studies.

`NS(=O)(=O)NCC(F)(F)c1ccccc1F` gave a Tmax of 30 min (mouse, plasma; oral, 5 mg/kg).
`Fc1ccc2[nH]ccc2c1-c1nc(N2CCOCC2)c2sc(CN3CCN(CC4CC4)CC3)cc2n1` gave a Tmax of 60 min (female BALB/c mouse, plasma; oral, 75 mg/kg, single dose).
`Cc1cccc(O[C@H]2CCC[C@@H](C(C)CNCc3ccncc3)C2)c1` (relative stereo) has a Tmax of 60 min (female C57BL/6 mouse, brain; oral, 25 mg/kg).
For `O=C1C2=C(CCN(Cc3ccccc3)C2)N2CCN=C2N1Cc1ccc(C(F)(F)F)cc1`, the Tmax was 34.8 min (female CD-1 mouse, plasma; oral, 50 mg/kg).
`C[N+]1(CC(=O)OC2CCCCCCCCCCC2)CCCCC1` gave a Tmax of 30 min (mouse, plasma; intraperitoneal, 2.5 mg/kg, single dose).
With `CCCCCCCCN(CCC(=O)Nc1ccccc1)C(=O)c1ccccn1` the Tmax was 300 min (C57BL/6 mouse, serum; intraperitoneal, 40 mg/kg).
`CCC(=C(c1ccc(Cl)cc1)c1ccc(OCCN2CCOCC2)cc1)c1ccc(OC)cc1` gave a Tmax of 30 min (female C57BL/6 mouse, plasma; oral, 400 mg/kg, single dose).
With `Cn1ccc2cc(-n3c(=O)[nH]c4sc5c(c4c3=O)CCCC5)ccc21` the Tmax was 15 min (C57BL/6 mouse, plasma; intraperitoneal, 10 mg/kg).
The Tmax of `Brc1ccccc1-c1nnc(CSc2nnnn2-c2ccccc2)o1` is reported as 15 min (male C57BL/6 mouse, plasma; intraperitoneal, 10 mg/kg).
For `O=C1OC2(c3ccccc31)c1cc(I)c(O)c(I)c1Oc1c2cc(I)c(O)c1I`, the Tmax was 18 min (female C57BL/6 mouse, plasma; intraperitoneal, 50 mg/kg).
`N#Cc1cnc2cc(OCC3CCNCC3)c(F)cc2c1Nc1cc(F)c(OCc2cccc(Cl)n2)cc1Cl` has a Tmax of 0 min (female CD-1 mouse, plasma; intravenous, 5 mg/kg).
With `Cc1cc(NCCOC(C)C)c2nc(N3CCOC[C@H]3C)cc(=O)n2c1` the Tmax was 5 min (C57BL/6 mouse, plasma; intraperitoneal, 10 mg/kg, single dose).
`CC(C)(O)c1ccc(N2Cc3c(ccnc3-c3ccc(F)cc3OCC(F)(F)F)C2=O)cc1` has a Tmax of 60 min (male C57BL/6 mouse, plasma; oral, 10 mg/kg, single dose).
`Cc1cc(O)cc(O)c1C(=O)c1c2c3c(c(O)cc(C)c3oc1=O)C(=O)c1c(O)cc(O)cc1-2` gave a Tmax of 15.9 min (male Kunming mouse, plasma; intraperitoneal, 30 mg/kg).
`CN1CCc2cc(Nc3ncc(C(F)(F)F)c(NCc4cc[nH]n4)n3)ccc2C1` gave a Tmax of 50 min (C57BL/6 mouse, brain; oral, 50 mg/kg, single dose).
For `CCOc1c(C(C)(C)O)sc2cnc(Nc3ccc(N4CCC(N5CC6(COC6)C5)CC4)cc3OC)nc12`, the Tmax was 120 min (male C57BL/6 mouse, plasma; oral, 30 mg/kg).
With `CN1CCC(N[C@@H]2CCc3[nH]c4c(C(N)=O)ccc(-c5ccccc5Cl)c4c3C2)CC1` the Tmax was 160 min (mouse, plasma; oral, 10 mg/kg).
`COC(=O)C1OC(Oc2c(-c3ccccc3)oc3cc(O)c(O)c(O)c3c2=O)C(O)C(O)C1O` (stereo not shown) has a Tmax of 15 min (BALB/c mouse, plasma; oral, 10 mg/kg, single dose).
`Cc1nc(NC(=O)N2CCC[C@H]2C(N)=O)sc1-c1csc(C(C)(C)C)n1` has a Tmax of 30 min (male CD-1 mouse, plasma; intraperitoneal, 10 mg/kg, single dose).

For quick reference, copied from above:
`Cc1cccc(O[C@H]2CCC[C@@H](C(C)CNCc3ccncc3)C2)c1` (relative stereo) has a Tmax of 60 min (female C57BL/6 mouse, brain; oral, 25 mg/kg).
